Results from different studies.
Each line is one published result; not all experiments were run side by side. Several values in a cell are separate wells, animals, samples, runs or records. ± marks the error that the study gave.

With `C=CC(=O)Nc1cc(Nc2nccc(-c3cn(C)c4ccccc34)n2)c(OC)cc1N(C)CCN(C)C` the recovery was 87.3% (storage stability; human dried blood spot; 2 h, -80 °C, MQC level).
With `CCCCCNC(=O)N1CCC(CN(Cc2ccc(Cl)cc2)Cc2ccc([N+](=O)[O-])s2)C1` (stereo not shown) the haemoglobin was 11.3 ± 1.2 g/dL (C57BL/6 mice; 100 mg/kg twice daily, 7 days).
`COc1cc(C(=O)NC2CCN(C)CC2)c(F)cc1Nc1ncc(C(F)(F)F)c(Oc2cccc3c2C(=O)N(C)C3)n1` gave a dose-normalised Cmax of 8.01 nmol/L per mg (human patients, plasma; oral, 25 mg single dose, geometric mean).
`COc1cc2nccc(Oc3ccc(NC(=O)c4cc5c(n(-c6ccccc6)c4=O)CCCC5=O)nc3)c2cc1OC`: “grade ≥3 Hyperglycaemia patients” 0% (relapsed or refractory AML; oral, 6 mg once daily).
`CCc1cc(C(=O)NC)c2nccc(N3CCc4c(cc(Cn5ccnc5)cc4-c4cn(C)nc4C(F)(F)F)C3=O)c2c1`: “lung weight change” 1.77% (Sprague Dawley rat; oral, 100 mg/kg once daily, 7 days; baseline: vehicle).
With `CCN(c1cc(-c2ccc(CN3CCOCC3)cc2)cc(C(=O)NCc2c(C)cc(C)[nH]c2=O)c1C)C1CCOCC1` the hemoglobin was 153 g/L and 150 g/L and 148 g/L and 160 g/L and 154 g/L (NOD/SCID mouse xenograft, blood; 100 mg/kg, 12 d, with: bortezomib 1 and co-treatment).
`C[C@@H]1CCO[C@H]2Cn3cc(C(=O)NCc4ccc(F)cc4F)c(=O)c(O)c3C(=O)N12` — result for “trough concentration (C24)”: 413 ng/mL (human paediatric patients, weight sample E to under sample F kg, plasma; oral, 25 mg film-coated tablet, 24 h, steady state, geometric mean, population PK post-hoc, N 1).
The plasma concentration of `O=C(O)c1cccc(O)c1` is reported as 2430 nM (human plasma; mean, both sexes).
With `C[C@@H]1CN(c2c(F)c(N)c3c(=O)c(C(=O)O)cn(C4CC4)c3c2F)C[C@H](C)N1` the amount permeated was 0.32 nmol (starch gel membrane permeability; Gram-negative envelope surrogate; 200 µM, 10 min, pH 7.4).
Under “samples above LOQ”, `Cn1c(=O)[nH]c2ncn(C)c2c1=O` is recorded as 100% (human, both sexes, plasma).
`[18F]c1ccc(-c2ccc3c(c2)[nH]c2ccncc23)cn1` gave an SUV of 2.5 ± 0.635 (ex vivo biodistribution; APP/PS1 mouse, AD model, spleen; intravenous, 30 min).
The plasma concentration of `COc1cc(/C=C/C(=O)OC2C(O)CC(O)(C(=O)O)CC2O)ccc1O` (stereo not shown) is reported as 22.2 nM (human plasma; mean).
For `O=C(N[C@H](CO)[C@H](O)c1ccc([N+](=O)[O-])cc1)C(Cl)Cl`, the amount permeated was 5.81 nmol (starch gel membrane permeability; Gram-negative envelope surrogate; 200 µM, 90 min, pH 7.4).
For `Cc1nc(-c2cnc(NC(C)C)n(C)c2=O)ccc1Oc1ccnc(-c2cnn(C)c2)c1`, “apparent volume of distribution” read 13.3 L/kg (Beagle dog, male, plasma; oral, 30 mg/kg, crossover study, mean).
For `O=c1c(O)c(-c2ccc(O)cc2)oc2cc(O)cc(O)c12`, the plasma concentration was 97600 nM (human plasma; median, both sexes).
For `NC1(C(=O)N[C@@H](CCO)c2ccc(Cl)cc2)CCN(c2nc[nH]c3nccc2-3)CC1`, “incidence of Somnolence” read 6.7% (metastatic CRPC patients; dose not given, any grade, treatment-related, all doses, with: enzalutamide 160 mg daily).
With `O=c1c2ccccc2oc2ccccc12` the solubility was 0.104 mole fraction (tricaprin-tricaprylin mixture; 75 °C, tricaprin fraction 0.56).
With `CN(C)[C@@H]1C(O)=C(C(N)=O)C(=O)[C@@]2(O)C(O)=C3C(=O)c4c(O)cccc4[C@@](C)(O)[C@H]3C[C@@H]12` the amount permeated was 1.78 nmol (starch gel membrane permeability; Gram-negative envelope surrogate; 200 µM, 30 min, pH 7.4).
For `COc1cc2c3c(n(CCCN4CCOCC4)c(=O)c2cc1OC)-c1cc2c(cc1C3=O)OCO2`, the clearance was 29 L/h/m² (Fischer 344 rat, female, plasma; intravenous bolus, 24 mg/m^2).
`CCc1nc(C(N)=O)c(Nc2ccc(N3CCC(N4CCN(C)CC4)CC3)c(OC)c2)nc1NC1CCOCC1` has an AUCtau of 1350 ng·h/mL (Japanese patients, plasma; oral, 20 mg, cycle 1 day 28, multiple doses, mean).
`CCN1/C(=C/C(C)=O)Sc2ccc(F)cc21`: “mean blood pressure” 94 ± 5 mmHg (cynomolgus monkey; oral, 10 mg/kg, 4 h post-dose).
`CCOc1c([C@H](C)n2nc(C)c3c(N)ncnc32)cc(Cl)c(F)c1[C@@H]1CNC(=O)C1`: “AUC(0-last) geometric mean” 6.63 µM·h (patients, monotherapy; oral, 10 mg once daily, cycle 1 day 15).
`O=C(O)CCC(=O)O.[2H]C([2H])([2H])Oc1cc(C)c2[nH]ccc2c1CN1CC[C@@H](C2CC2)C[C@H]1c1ccc(C(=O)O)cc1` — result for “TEAE decreased fibrinogen”: 0% (healthy Chinese subjects; 50 mg, single ascending dose).
`COc1ccc2c(c1)CN(C(=O)CCN1CCC(Cc3ccccc3)CC1)CC[S@@+]2[O-]` gave a PQ interval of 91 ± 11 ms (telemetry; conscious male beagle dogs; intravenous, 4 mg/kg, 1 h).
Under “geometric mean AUC(0-last)”, `CCCCC[C@H](O)CC[C@@H]1[C@H]2Cc3cccc(OCC(=O)O)c3C[C@H]2C[C@H]1O` is recorded as 1.08 ng·h/mL (LC-MS/MS; Japanese PAH patients aged ≥sample A years, plasma; inhaled, 54 µg).
The plasma concentration of `O=C(O)c1ccccc1` is reported as 61500 nM (human plasma; mean, both sexes).
For `CN(C)C(=N)N=C(N)N`, “drug-related adverse events” read 8.3% (refers to: mild diarrhea or headache; human male subjects; oral, 500 mg, 8 days, crossover trial; baseline: subjects).
The R/S ratio of `COc1ccc2[nH]c([S+]([O-])Cc3ncc(C)c(OC)c3C)nc2c1` (stereo not shown) is reported as 0.67 (human male, plasma and dried plasma spots; oral, 5 mg, 4 h, baseline session).
With `O=C(O)C=Cc1ccc(O[C@@H]2O[C@H](C(=O)O)[C@@H](O)[C@H](O)[C@H]2O)cc1` the plasma concentration was 96.3 nM (human plasma; median).
For `O=C(COc1ccc(Cl)cc1)NC12CC(c3nnc([C@H]4C[C@@H](OC(F)(F)F)C4)o3)(C1)C2`, “postural dizziness participants” read 16.7% (human both sexes; oral, 800 mg single dose).
The plasma concentration of `OCCc1ccc(O)cc1` is reported as 881 nM (human plasma; median).
`CC(C)(C(=O)N1CCOc2c(C#N)cncc2C1)C(F)F` — result for “subjects with adverse event”: 0% (refers to: Dermatitis; human; oral, 20 mg once daily, 14 days, multiple ascending dose).
For `CO[C@H]1/C=C/O[C@@]2(C)Oc3c(C)c(O)c4c(O)c(c(/C=N/N5CCN(C)CC5)c(O)c4c3C2=O)NC(=O)/C(C)=C\C=C\[C@H](C)[C@H](O)[C@@H](C)[C@@H](O)[C@@H](C)[C@H](OC(C)=O)[C@@H]1C`, the amount permeated was 0.35 nmol (starch gel membrane permeability; Gram-negative envelope surrogate; 200 µM, 10 min, pH 7.4).
For `Cc1cc(O)c2c(c1)C(=O)c1cccc(O)c1C2=O`, the cell viability was 90.8 ± 9.79% (HepaRG co-cultured with HK-2; MTT; 16.67 µM, 24 h; baseline: untreated control).
The SHBG level of `N#Cc1ccc2c(c1)[C@H]1CCCN(C(=O)c3ccc4[nH]cnc4c3)[C@H]1C2` is reported as 35.9 nmol/L (human males; 10 mg, end of trial).
The AUC(0-all) of `Cc1cc(-c2ccc3cc[nH]c(=O)c3c2)ccc1O[C@H]1O[C@H](CO)[C@@H](O)[C@H](O)[C@@H]1O` is reported as 29.6 ng·h/mL (male Sprague-Dawley rat, plasma; oral, 10 mg/kg, group mean).
For `CCCCCCCC(=O)c1c(O)cc(O)cc1CC(=O)OCC`, the apoptotic cells was 0.48 ± 0.16 (COS-7; 10 µM, 24 h, 0.1% DMSO, unit not given; baseline: vehicle control).
`Cn1cc(Nc2nc(N)nc(-c3cccc(-n4ccc5cc(C6CC6)cc(F)c5c4=O)c3CO)n2)cn1` — result for “drug-related nausea incidence”: 0% (healthy humans, fed; oral tablet, 300 mg twice daily (multiple dose), 14 (unit not given); baseline: subjects).
`O=C1c2cccc(O)c2C(=O)c2c(O)cc(CO)cc21` has a cell viability of 105 ± 7.63% (HepaRG co-cultured with HK-2; MTT; 66.67 µM, 24 h; baseline: untreated control).
For `N#Cc1ccc2c(c1)[C@H]1CCCN(C(=O)c3ccc4[nH]cnc4c3)[C@H]1C2`, “pre-dose plasma concentration” read 2310 nmol/L (human, plasma; 240 mg once daily, day 7).
For `Cc1cc(C)c(CNC(=O)c2cc(Cl)c3c(c2C)O[C@@](C)([C@H]2CC[C@H](N(C)C)CC2)O3)c(=O)[nH]1`, the TEAE incidence was 50% (healthy Japanese male volunteers; oral, dose not given, with: fluconazole).
With `COc1c(C)c2c(c(O[C@@H]3O[C@H](C(=O)O)[C@@H](O)[C@H](O)[C@H]3O)c1C/C=C(\C)CCC(=O)O)C(=O)OC2` the Cmax, mean was 31.7 ng/mL (healthy subjects, plasma; oral, 1 g mycophenolate mofetil, with: isavuconazole).
`CC[C@H](C)[C@H](NC(=O)[C@H](Cc1ccccc1)NC(=O)[C@H](CCC(=O)O)NC(=O)[C@H](CCCCNC(=O)COCCOCCNC(=O)COCCOCCNC(=O)CC[C@H](NC(=O)CCCCCCCCCCCCCCCCC(=O)O)C(=O)O)NC(=O)[C@H](C)NC(=O)[C@H](C)NC(=O)[C@H](CCC(N)=O)NC(=O)CNC(=O)[C@H](CCC(=O)O)NC(=O)[C@H](CC(C)C)NC(=O)[C@H](Cc1ccc(O)cc1)NC(=O)[C@H](CO)NC(=O)[C@H](CO)NC(=O)[C@@H](NC(=O)[C@H](CC(=O)O)NC(=O)[C@H](CO)NC(=O)[C@@H](NC(=O)[C@H](Cc1ccccc1)NC(=O)[C@@H](NC(=O)CNC(=O)[C@H](CCC(=O)O)NC(=O)C(C)(C)NC(=O)[C@@H](N)Cc1cnc[nH]1)[C@@H](C)O)[C@@H](C)O)C(C)C)C(=O)N[C@@H](C)C(=O)N[C@@H](Cc1c[nH]c2ccccc12)C(=O)N[C@@H](CC(C)C)C(=O)N[C@H](C(=O)N[C@@H](CCCNC(=N)N)C(=O)NCC(=O)N[C@@H](CCCNC(=N)N)C(=O)NCC(=O)O)C(C)C` — result for “systolic blood pressure change”: -1.6 mm Hg (type 2 diabetes patients; dose not given, hypoglycaemic clamp, nadir PG 5.5 mmol/L).
`Cc1cc(C)c(CNC(=O)c2cc(Cl)c3c(c2C)O[C@@](C)([C@H]2CC[C@H](N(C)C)CC2)O3)c(=O)[nH]1`: “patients with grade ≥3 TEAE” 0% (refers to: Pain; human patients; oral, 200 mg once daily, 1 day onset day 14).
`Cn1nc2c(=O)n(C3CC3)ccc2c1[C@](O)(c1ccc(C(F)(F)F)nc1)C1CC1` gave a CL of 1.87 ± 0.211 mL/min/kg (rat Sprague-Dawley male, plasma; intravenous, 1 mg/kg).
`CO[C@H]1C[C@@H]2CC[C@@H](C)[C@@](O)(O2)C(=O)C(=O)N2CCCC[C@H]2C(=O)O[C@H]([C@H](C)C[C@@H]2CC[C@@H](OC(=O)NCCOCCOCCOCCOCCOCCOCCOCCOCCC(=O)N3CCc4cc(Cn5nc(-c6ccc7oc(N)nc7c6)c6c(N)ncnc65)ccc4C3)[C@H](OC)C2)C[C@@H](O)[C@H](C)/C=C(\C)[C@@H](O)[C@@H](OC)C(=O)[C@H](C)C[C@H](C)/C=C/C=C/C=C/1C` has a Cmax of 590 ng/mL (human, plasma; intravenous, 8 mg, cycle 1 day 15, arithmetic mean).
`C[C@H](NC(=O)/C(C#N)=C/c1cccc(Br)n1)c1ccccc1` gave an AUC(all) of 80 ng·h/mL (LC-MS/MS; patients, plasma; oral, 2 mg/kg, cycle 1 day 1).
For `C[C@H]1CN(C(=O)CC#N)[C@]12CCN(c1ncnc3[nH]ccc13)C2`, “participants with dry skin” read 3.1% (human; oral, dose not given, all compound groups).
With `Cc1nc2ccc(OCc3ccc(C(F)(F)F)cc3)cc2[nH]1` the tissue/plasma ratio was 4.5 ± 0.6 (male Balb/c mice, brain; oral, 10 mg/kg, 4 h; baseline: tissue over plasma).

For quick reference, copied from above:
For `O=C(N[C@H](CO)[C@H](O)c1ccc([N+](=O)[O-])cc1)C(Cl)Cl`, the amount permeated was 5.81 nmol (starch gel membrane permeability; Gram-negative envelope surrogate; 200 µM, 90 min, pH 7.4).
`C[C@@H]1CCO[C@H]2Cn3cc(C(=O)NCc4ccc(F)cc4F)c(=O)c(O)c3C(=O)N12` — result for “trough concentration (C24)”: 413 ng/mL (human paediatric patients, weight sample E to under sample F kg, plasma; oral, 25 mg film-coated tablet, 24 h, steady state, geometric mean, population PK post-hoc, N 1).
`CC[C@H](C)[C@H](NC(=O)[C@H](Cc1ccccc1)NC(=O)[C@H](CCC(=O)O)NC(=O)[C@H](CCCCNC(=O)COCCOCCNC(=O)COCCOCCNC(=O)CC[C@H](NC(=O)CCCCCCCCCCCCCCCCC(=O)O)C(=O)O)NC(=O)[C@H](C)NC(=O)[C@H](C)NC(=O)[C@H](CCC(N)=O)NC(=O)CNC(=O)[C@H](CCC(=O)O)NC(=O)[C@H](CC(C)C)NC(=O)[C@H](Cc1ccc(O)cc1)NC(=O)[C@H](CO)NC(=O)[C@H](CO)NC(=O)[C@@H](NC(=O)[C@H](CC(=O)O)NC(=O)[C@H](CO)NC(=O)[C@@H](NC(=O)[C@H](Cc1ccccc1)NC(=O)[C@@H](NC(=O)CNC(=O)[C@H](CCC(=O)O)NC(=O)C(C)(C)NC(=O)[C@@H](N)Cc1cnc[nH]1)[C@@H](C)O)[C@@H](C)O)C(C)C)C(=O)N[C@@H](C)C(=O)N[C@@H](Cc1c[nH]c2ccccc12)C(=O)N[C@@H](CC(C)C)C(=O)N[C@H](C(=O)N[C@@H](CCCNC(=N)N)C(=O)NCC(=O)N[C@@H](CCCNC(=N)N)C(=O)NCC(=O)O)C(C)C` — result for “systolic blood pressure change”: -1.6 mm Hg (type 2 diabetes patients; dose not given, hypoglycaemic clamp, nadir PG 5.5 mmol/L).
